Assay results gathered from unrelated publications.
Compare with care: the assays were run in different laboratories. ± gives the spread as reported.
U2AF2: U2AF2 148-342 (Homo sapiens, UniProt P26368)
Chain of UniProt P26368 (whole entry, looked up): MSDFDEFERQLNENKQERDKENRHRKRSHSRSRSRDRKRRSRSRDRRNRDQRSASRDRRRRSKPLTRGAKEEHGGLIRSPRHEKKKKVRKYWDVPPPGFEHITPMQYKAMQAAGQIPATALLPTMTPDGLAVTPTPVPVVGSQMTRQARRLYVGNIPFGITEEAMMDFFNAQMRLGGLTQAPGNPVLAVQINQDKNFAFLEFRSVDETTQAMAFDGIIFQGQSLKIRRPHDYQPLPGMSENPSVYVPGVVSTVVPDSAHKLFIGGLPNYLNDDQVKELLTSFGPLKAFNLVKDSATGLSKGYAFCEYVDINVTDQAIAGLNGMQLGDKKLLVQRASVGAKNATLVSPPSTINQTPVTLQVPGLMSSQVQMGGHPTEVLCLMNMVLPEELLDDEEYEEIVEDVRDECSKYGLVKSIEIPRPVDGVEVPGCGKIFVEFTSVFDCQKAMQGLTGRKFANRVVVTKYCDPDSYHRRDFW
B1: rCR (Lodderomyces parapsilosis, UniProt A1X808); chain MSIPSSQYGFVFNKQSGLKLRNDLPVHKPKAGQLLLKVDAVGLCHSDLHVIYEGLDCGDNYVMGHEIAGTVAAVGDDVINYKVGDRVACVGPNGCGGCKYCRGAIDNVCKNAFGDWFGLGYDGGYQQYLLVTRPRNLSRIPDNVSADVAAASTDAVLTPYHAIKMAQVSPTSNILLIGAGGLGGNAIQVAKAFGAKVTVLDKKKEARDQAKKLGADAVYETLPESISPGSFSACFDFVSVQATFDVCQKYVEPKGVIMPVGLGAPNLSFNLGDLALREIRILGSFWGTTNDLDDVLKLVSEGKVKPVVRSAKLKELPEYIEKLRNNAYEGRVVFNP
B2: acsA (Pseudomonas chlororaphis, UniProt Q5CD72); chain MRDYEHVVESFDYLQSATQDLHGELTALNACVECCDRHAHGEAVALYCEAQDGHAERYRFRDLQRQAARFGNFLREQGVKPGDRVAGLMPRTVELLIAILGTWRIGAVYQPLFTAFGPKAIEQRLNCSNARWIVTDPHNRPKLDDVTDCPSIVVTGGAPQNPADHHFWSALNRQADDCAPVLLDASAPFLLMCTSGTTGPAKPLEVPLSAILAFKGYMRDAIDLRADDRFWNLADPGWAYGLYYAVTGPLACGYATLFYDGPFTVESTRHIIAKYAINNLAGSPTAYRFLIAAGAEFADAVRGRLRAVSSAGEPLNPQVVRWFAEQLGVVIHDHYGQTEIGMVLCNHHGLRHPVREGSAGYAVPGYRIVVLDKAHRELPAGQPGVLAVDRERSPLCWFDGYLGMPTQAFAGRYYLSGDIVELNDDGSISFVGRNDDLITTSGYRVGPFDVESALIEHPAVVEAAVIGKPDPQRTELIKAFVVLNTPYLPSPELAEELRLHVRQRLAAHAYPREMEFVDHLPKTPSGKLQRFILRNQEIAKQQALG
B3: enzyme Y414S/Y415A (Methanosarcina mazei, UniProt Q8PVB1); chain MSEQRSVPLREHLLALKPCRHGGLIQETSETYGIPENEILDFSANFNPLGSPFDYPENGLNFEDIIKKSCGKLLEYPDNRYVEFREAAARFVGLGVTPQSIVPGNGSTEIVRLVVESVIEKGDKVLLPWPTFGEYEMQCRITGAEPVCPSQEEVNTLPDEVLEEAKILFICNPNNPTGKLRTREELKVLAERCREHKTLLYVDEAFIELSDPSQSVADLPAENNYVFVMRSLTKDFAIPGIRMGFGIAPPAMADILNTARLSWNLGAIANNTGIALLNIEGGIDSPYLKKAREMILKEGETLKAKIDRIRGFEAGEVNVNFILVDVSKFMLNSSELTARLAARGVLVRDCVSFHGLGKNYIRVAVRTEKENDRLIAAIGDVITEWGREQAKNELQHVIEKASEEGIGGRKTCESAPCHFEGQNCTFCFCPFYPCENEKTGGKWIQSSRGGRVWSCVDCHLVHKKEIAQKILDCLMHEGDTDELVKVAWKEVMEPIL
B4: enzyme R85Q (Methanopyrus kandleri, UniProt Q8TWG5); chain MSKVAVIGATGRVGSTAAARLALLDCVNEVTLIARPKSVDKLRGLRRDILDSLAAAQKDAEITIGCERDDYVDADVIVMTAGIPQKPGQTRLDLTKDNAAIIKKYLEGVAEENPEAIVLVVTNPVDVLTYVALKVSGLPKNRVIGLGTHLDSMRFKVLIAKHFNVHMSEVHTRIIGEHGDTMVPVISSTSVGGIPVTRMPGWEDFDVEEAVREVKEAGQRIIETWGGSQFGPAQAITNLVRTILQDERRVLTVSAYLDGEIDGIRDVCIGVPARLGREGVLEIVPIELEEDEMRAFRRSVKVVKEATREAMEAISER
B5: enzyme (Azotobacter vinelandii, UniProt C1DN94); chain MSESPLRLDRLRDFVSALGELLDRHPDEESVLREGRSLLGELVRHDDWLPEEFAQPDPERYQQYLLHADSRQRFSVVSFVWGPGQTTPVHDHRVWGLIGMLRGAEDAQSFELGAEGLRPIGDPVRLSPGQVEAVSPRIGDIHRVFNASPDQPSISIHVYGANIGAVRRAVYLPDGSEKPFISGYSNQFLPNIWDQSKESARP
B6: enzyme (Pseudomonas poae, UniProt A0A2S9EJ63); chain MSTQHYDYIIVGGGSAGSVLANRLSAQADKRVLLIEAGADTPEHDTPTDILDGLQPWLPRLAGERYFWPGLNILRASEHGDIPREPQLYEQARILGGGSSVNMMVANRGLPRDYDEWARLGADGWDWQGVLPYFRKLERDLDFGHSHPEQHGQDGPIPIARVDSRHWGSFTRASAQALHTQGLNDIVDQNGRFEDGYFAPAVAIEHDQRVSSARAYLNAAVRARPNLSVWADTTVRQLTVKGQRVTGVQAVRDGRTVELAGDEVILAAGALQSPAFLLRAGIGPADQLRDLGIEVIADRPGVGRNLWDHSSIGLSASLHHPQVPSDEPGAAHLLAARVSSGVEPSVPGDLYLGIAPNAALGLASAVLWVNKPSSSGHLRLRSKDPADYPAVEFNLLSDRRDLERLRQGLRLLARVFAHPAVAAFSGPPRLSRFAQASNEGPLLSELLANDAQLERYLRTHVGGVWHASGTCRIGRADDPQAVVDHAGRVHGVQGLRVADASVFPSIPTANTNLPTLMIAEKIAEAILANA
B7: enzyme Y24A (Nitrosopumilus maritimus, UniProt A9A5X4); chain MDSQKFDSIIFDCDGVLVDITQSADKTIDKTCRYVLKEFAKIDSITIDHKIIDGFKSSGGFNDEVDLVYAAILSLYTANKLNKKPSEFIYDVISNTDKTGIRSVQSYLESIYDVSEFLSKLGSLGDRHNNPVYSIFDQFFFGPELYGKLFDKQSKFSEEGMISNDKVILSVSLLETLQKEFGKKIAVVTGRGIESIRYSLKDMMDYFDTKNSAFLEDEPRELAKPNPATLIRAIQSMESKNCLYVGDSMEDYMMAKDAAQAGHSTTFCAIVGTSTNPEDRRKLFADSGVEMILESINDIPKVLNLV
B8: enzyme (Kluyveromyces lactis, UniProt Q6CSZ6); chain MSSLDINEQRALIKSAHRYISEKLEDHFSSEFLPKALVICGSGLSGISTKIADEPKPLILSYSTIPGFKVSTVPGHSGELIFGYMNGAPVVLMNGRLHSYEGHSLAETVHPIRALHLLGSINVLIVTNAAGGINASFKAGDLMCVYDHINFPGLCGFHPLRGANFDEFGPRFLATSDAYDLELRKLLFSKKKELNIERKIHEGTYSYVHGPTFESRAESRFLRLAGTDAVGMSTVPEVVTARHCGWRVLALSLITNECVVDPPASAHDENPVPIQEGKATHEEVLENSAKASKDVQELIFSVVAEI
B9: human histidine ammonia-lyase; sequence looked up; chain MPRYTVHVRGEWLAVPCQDAQLTVGWLGREAVRRYIKNKPDNGGFTSVDDAHFLVRRCKGLGLLDNEDRLEVALENNEFVEVVIEGDAMSPDFIPSQPEGVYLYSKYREPEKYIELDGDRLTTEDLVNLGKGRYKIKLTPTAEKRVQKSREVIDSIIKEKTVVYGITTGFGKFARTVIPINKLQELQVNLVRSHSSGVGKPLSPERCRMLLALRINVLAKGYSGISLETLKQVIEMFNASCLPYVPEKGTVGASGDLAPLSHLALGLVGEGKMWSPKSGWADAKYVLEAHGLKPVILKPKEGLALINGTQMITSLGCEAVERASAIARQADIVAALTLEVLKGTTKAFDTDIHALRPHRGQIEVAFRFRSLLDSDHHPSEIAESHRFCDRVQDAYTLRCCPQVHGVVNDTIAFVKNIITTELNSATDNPMVFANRGETVSGGNFHGEYPAKALDYLAIGIHELAAISERRIERLCNPSLSELPAFLVAEGGLNSGFMIAHCTAAALVSENKALCHPSSVDSLSTSAATEDHVSMGGWAARKALRVIEHVEQVLAIELLAACQGIEFLRPLKTTTPLEKVYDLVRSVVRPWIKDRFMAPDIEAAHRLLLEQKVWEVAAPYIEKYRMEHIPESRPLSPTAFSLQFLHKKSTKIPESEDL
B10: enzyme F206A/H226Y (Oryctolagus cuniculus, UniProt P00178); chain GRLPPGPSPLPVLGNLLQMDRKGLLRSFLRLREKYGDVFTVYLGSRPVVVLCGTDAIREALVDQAEAFSGRGKIAVVDPIFQGYGVIFANGERWRALRRFSLATMRDFGMGKRSVEERIQEEARCLVEELRKSKGALLDNTLLFHSITSNIICSIVFGKRFDYKDPVFLRLLDLFFQSASLISSFSSQVFELFPGFLKYFPGTHRQIYRNLQEINTFIGQSVEKHRATLDPSNPRDFIDVYLLRMEKDKSDPSSEFHHQNLILTVLSLFFAGTETTSTTLRYGFLLMLKYPHVTERVQKEIEQVIGSHRPPALDDRAKMPYTDAVIHEIQRLGDLIPFGVPHTVTKDTQFRGYVIPKNTEVFPVLSSALHDPRYFETPNTFNPGHFLDANGALKRNEGFMPFSLGKRICLGEGIARTELFLFFTTILQNFSIASPVPPEDIDLTPRESGVGNVPPSYQIRFLAR
Chain of UniProt A0A348FUE1 (whole entry, looked up): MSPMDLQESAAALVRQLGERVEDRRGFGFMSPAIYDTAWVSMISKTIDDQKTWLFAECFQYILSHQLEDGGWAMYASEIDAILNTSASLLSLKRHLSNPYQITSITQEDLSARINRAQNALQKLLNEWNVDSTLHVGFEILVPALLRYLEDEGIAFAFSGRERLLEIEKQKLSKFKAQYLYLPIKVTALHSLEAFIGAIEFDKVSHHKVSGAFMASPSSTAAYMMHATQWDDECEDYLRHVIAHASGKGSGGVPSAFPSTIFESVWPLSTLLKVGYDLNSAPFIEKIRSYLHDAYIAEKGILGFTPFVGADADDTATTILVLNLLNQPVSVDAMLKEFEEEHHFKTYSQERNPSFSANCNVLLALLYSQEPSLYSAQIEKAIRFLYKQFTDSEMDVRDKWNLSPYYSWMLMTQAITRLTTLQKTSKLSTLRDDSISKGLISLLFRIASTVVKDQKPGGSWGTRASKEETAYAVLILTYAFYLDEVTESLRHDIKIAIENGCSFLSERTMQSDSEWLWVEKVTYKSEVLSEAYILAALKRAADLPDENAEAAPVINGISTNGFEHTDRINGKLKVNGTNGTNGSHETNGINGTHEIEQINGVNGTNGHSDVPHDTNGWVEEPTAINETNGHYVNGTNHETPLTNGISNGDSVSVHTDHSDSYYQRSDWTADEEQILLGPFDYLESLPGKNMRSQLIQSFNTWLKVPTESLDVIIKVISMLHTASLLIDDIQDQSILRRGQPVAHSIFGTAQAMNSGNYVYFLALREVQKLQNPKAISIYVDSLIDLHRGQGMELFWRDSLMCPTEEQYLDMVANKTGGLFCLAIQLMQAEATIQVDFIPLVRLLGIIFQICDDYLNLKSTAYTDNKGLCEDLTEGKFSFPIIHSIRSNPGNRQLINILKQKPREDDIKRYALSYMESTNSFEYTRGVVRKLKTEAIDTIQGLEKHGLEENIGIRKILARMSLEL

Substance	tested on	test	test system	setting	scale	measurement	result
B1 (rCR)	O=C(CO)c1ccccc1	steady-state kinetics	–	pH 7, 30 °C	–	kcat/Km	6880 M⁻¹ s⁻¹
enzyme (UniProt A0A097IUD8)	Nc1ncnc2c1ncn2[C@@H]1O[C@H](COP(=O)(O)OP(=O)(O)O)[C@@H](O)[C@H]1O	steady-state kinetics	–	pH 6, 25 °C, added: 16 mM PEP	–	kcat/Km	340000 M⁻¹ s⁻¹
B2 (acsA)	CC(=O)O	steady-state kinetics	–	pH 7	–	kcat/Km	1500 ± 167 M⁻¹ s⁻¹
B3 (enzyme Y414S/Y415A)	Nc1ncnc2c1ncn2[C@@H]1O[C@H](COP(=O)(O)OP(=O)(O)OP(=O)(O)O)[C@@H](O)[C@H]1O	steady-state kinetics	–	pH 8.5, 25 °C, apparent, anoxic, added: L-Thr 10 mM	–	kcat/Km	46 ± 20 M⁻¹ s⁻¹
spectrin beta, non-erythrocytic 1 (human)	PP6C (human)	co-immunoprecipitation, IP-MS	CYB5R4 knockout cells	concentration not given	reference: CYB5R4 knockout over parental	log2 fold change	0.56
B4 (enzyme R85Q)	CC(=O)C(=O)O	steady-state kinetics	–	pH 6, 60 °C, added: 0.3 mM NADH	–	kcat/Km	4200 M⁻¹ s⁻¹
B5 (enzyme)	NCCS	steady-state kinetics	–	pH 8, 25 °C, added: O2	–	kcat/Km	11 ± 2 M⁻¹ s⁻¹
B6 (enzyme)	O=Cc1ccc(CO)o1	steady-state kinetics	–	pH 8, 30 °C, added: 2 µM FAD	–	kcat/Km	3.8 M⁻¹ s⁻¹
UAAAUUAUA (ssRNA)	U2AF2	sequencing of bound RNA	RNA	motif only	–	Kd	4.75 µM
enzyme N248Y/R246H (Arabidopsis thaliana, UniProt O24495)	C[C@@H](O)C(=O)SC[C@H](NC(=O)CC[C@H](N)C(=O)O)C(=O)NCC(=O)O	steady-state kinetics	–	pH 7.2, 25 °C	–	kcat/Km	7000 ± 5000 M⁻¹ s⁻¹
B7 (enzyme Y24A)	N[C@H](COP(=O)(O)O)Cc1c[nH]cn1	steady-state kinetics	–	pH 7.8, 25 °C	–	kcat/Km	36 ± 9 M⁻¹ s⁻¹
CUUCCCUUU (ssRNA)	U2AF2	sequencing of bound RNA	RNA	motif only	–	Kd	2.42 µM
B8 (enzyme)	Nc1nc2c(ncn2[C@H]2C[C@H](O)[C@@H](CO)O2)c(=O)[nH]1	steady-state kinetics	–	–	–	kcat/Km	37000 M⁻¹ s⁻¹
B9 (human histidine ammonia-lyase)	CYB5R4 knockout human cells	PP4 interaction, 3xFLAG-PP4C IP-MS	–	concentration not given	reference: CYB5R4 KO over parental	log2 fold change	-1.02
enzyme (Talaromyces verruculosus, UniProt A0A348FUE1)	CC(C)=CCOP(=O)(O)OP(=O)(O)O	steady-state kinetics	–	pH 7.5, apparent, added: 150 µM IPP	–	kcat/Km	550 ± 30 M⁻¹ s⁻¹
B10 (enzyme F206A/H226Y)	CCOc1ccc2c(C(F)(F)F)cc(=O)oc2c1	steady-state kinetics	–	37 °C, added: 7-EFC	–	kcat/Km	333 M⁻¹ s⁻¹

Repeated from above:
Substance	tested on	test	test system	setting	scale	measurement	result
B7 (enzyme Y24A)	N[C@H](COP(=O)(O)O)Cc1c[nH]cn1	steady-state kinetics	–	pH 7.8, 25 °C	–	kcat/Km	36 ± 9 M⁻¹ s⁻¹
CUUCCCUUU (ssRNA)	U2AF2	sequencing of bound RNA	RNA	motif only	–	Kd	2.42 µM
